Measured values collected from several papers.
Lines come from different studies, so protocols differ. Numbers after ± are the reported error.

Structure (SMILES) | test | test system | setting | how to read | Cmax
CCCCCCCC(=O)NC[C@H](NC(=O)[C@H](CO)NC(=O)CN)C(=O)N[C@@H](Cc1ccccc1)C(=O)N[C@@H](CC(C)C)C(=O)N[C@@H](CO)C(=O)N1CCC[C@H]1C(=O)N[C@@H](CCC(=O)O)C(=O)N[C@@H](Cc1c[nH]cn1)C(=O)N[C@@H](CCC(N)=O)C(=O)N[C@@H](CCCNC(=N)N)C(=O)N[C@H](C(=O)N[C@@H](CCC(N)=O)C(=O)N[C@H](C(=O)N[C@@H](CCCNC(=N)N)C(=O)N1CCC[C@H]1C(=O)N1CCC[C@H]1C(=O)N[C@@H](Cc1c[nH]cn1)C(=O)N[C@@H](CCCCN)C(=O)N[C@@H](C)C(=O)N1CCC[C@H]1C(=O)N[C@@H](Cc1c[nH]cn1)C(=O)N[C@H](C(=O)N[C@H](C(=O)O)C(C)C)C(C)C)C(C)C)C(C)C | – | mouse, plasma | intraperitoneal, 7.2 mg/kg | – | 588 ng/mL
[2H]C([2H])([2H])C([2H])([2H])C([2H])([2H])OC(C(=O)OC1CCNCC1)(c1ccccc1)c1ccccc1 | – | healthy Japanese male subjects, plasma | oral, 10 mg once daily, day 16, fed, mean | – | 112 ng/mL
COc1ccc(F)cc1S(=O)(=O)Nc1cnc2c(c1)C(=O)NCCO2 | – | male C57BL/6 mouse, plasma | oral, 3 mg/kg, single dose | – | 590 ng/mL
O=c1cc(-c2ccccc2)oc2c(Br)c(O)c(O)c(O)c12 | – | C57BL/6 mouse, plasma | intravenous, 10 mg/kg, single dose | – | 3440 ng/mL
CN(CC(=O)N(Cc1ccc(C2CCCCC2)cc1)c1ccc(C(=O)O)cc1)S(=O)(=O)c1c(F)c(F)c(F)c(F)c1F | – | mouse, plasma | intraperitoneal, 20 mg/kg | – | 1660 ng/mL
CC(=CCC(O)C(C)=Cc1csc(C)n1)CC=CC(C)C(O)C(C)C(=O)C(C)(C)C(O)CC(=O)O (centres unmarked) | – | human, plasma | intravenous infusion, 15.0 mg/m2 KOS-1584, 3 h infusion, cycle 1 | – | 8.05 ± 2.08 ng/mL
CC[C@H](C)C(=O)N1CCC(NC(=O)Nc2ccc(OC(F)(F)F)c(F)c2)CC1 | – | healthy volunteers | oral, 8 mg | relative to: fasted, increase | 66%
CSCC[C@H](NC(=O)[C@H](CO)NC(=O)[C@H](Cc1ccc(O)cc1)NC(=O)[C@@H](N)CO)C(=O)N[C@@H](CCC(=O)O)C(=O)N[C@@H](Cc1c[nH]cn1)C(=O)N[C@@H](Cc1ccccc1)C(=O)N[C@@H](CCCNC(=N)N)C(=O)N[C@@H](Cc1c[nH]c2ccccc12)C(=O)NCC(=O)N[C@@H](CCCCN)C(=O)N1CCC[C@H]1C(=O)N[C@H](C(=O)NCC(=O)N[C@@H](CCCCN)C(=O)N[C@@H](CCCCN)C(=O)N[C@@H](CCCNC(=N)N)C(=O)N[C@@H](CCCNC(=N)N)C(=O)N1CCC[C@H]1C(=O)N[C@H](C(=O)N[C@@H](CCCCN)C(=O)N[C@H](C(=O)N[C@@H](Cc1ccc(O)cc1)C(=O)N1CCC[C@H]1C(=O)N[C@@H](CC(=O)O)C(=O)NCC(=O)N[C@@H](C)C(=O)N[C@@H](CCC(=O)O)C(=O)N[C@@H](CC(=O)O)C(=O)N[C@@H](CCC(=O)O)C(=O)N[C@@H](CC(C)C)C(=O)N[C@@H](C)C(=O)N[C@@H](CCC(=O)O)C(=O)N[C@@H](C)C(=O)N[C@@H](Cc1ccccc1)C(=O)N1CCC[C@H]1C(=O)N[C@@H](CC(C)C)C(=O)N[C@@H](CCC(=O)O)C(=O)N[C@@H](Cc1ccccc1)C(=O)O)C(C)C)C(C)C)C(C)C | – | healthy human subjects, plasma | subcutaneous, 80 IU three times weekly, day 15, repository corticotropin injection | – | 0.301 ng/mL
CCc1c2c(nc3ccc(OC4OC(C(=O)O)C(O)C(O)C4O)cc13)-c1cc3c(c(=O)n1C2)COC(=O)C3(O)CC (centres unmarked) | – | human patients, plasma | intravenous, 177 mg/m^2 of parent drug | – | 131 ng/mL
C[C@@H]1CC[C@H]2[C@@H](C)CO[C@@H]3O[C@@]4(C)CC[C@@H]1[C@]32OO4 | – | male Sprague-Dawley rat, plasma | oral, 100 mg/kg | – | 913 ng/mL
CCCCCCCCCCCCCC(=O)N[C@@H](Cc1ccccc1)C(=O)N[C@@H](CCC(=O)O)C(=O)N[C@@H](CCC(=O)O)C(=O)N[C@@H](CCC(=O)O)C(=O)N[C@@H](CCCNC(=N)N)C(=O)N[C@@H](CC(C)C)C(=O)O | – | plasma | intravenous, 5 mg/kg, HLPN formulation | – | 59600 ng/mL
C/C=C/C=C/C/C=C/CCCCCCCc1cccc(O)c1O | – | male Wistar rat, plasma | intravenous, 20 mg/kg | – | 8080 ng/mL
CC(C)C[C@@H](N)C(=O)NCC(=O)N[C@H](C)C(=O)N[C@H](CO)C(=O)N[C@H](Cc1c[nH]c2ccccc12)C(=O)N[C@H](Cc1c[nH]cn1)C(=O)N[C@H](CCCNC(=N)N)C(=O)N1CCC[C@@H]1C(=O)N[C@H](CC(=O)O)C(=O)N[C@H](CCCCN)C(=O)N[C@H](CS)C(=O)N[C@H](CS)C(=O)N[C@H](CC(C)C)C(=O)NCC(=O)N[C@H](Cc1ccc(O)cc1)C(=O)N[C@H](CCC(N)=O)C(=O)N[C@H](CCCCN)C(=O)N[C@H](CCCNC(=N)N)C(=O)N1CCC[C@@H]1C(=O)N[C@H](CC(C)C)C(=O)N1CCC[C@@H]1C(N)=O | – | male Sprague-Dawley rat, plasma | subcutaneous, 10 mg/kg, single dose | – | 8590 ng/mL
C(#Cc1cncc(OC[C@@H]2CCN2)c1)c1ccccc1 | – | male Sprague-Dawley rat, plasma | oral, 75 mg/kg | – | 560 ng/mL
CCC[C@@H]1O[C@@H]2C[C@H]3[C@@H]4C[C@H](F)C5=CC(=O)CC[C@]5(C)[C@@]4(F)[C@@H](O)C[C@]3(C)[C@]2(C(=O)CO)O1 | item: parent steroid | CD1 mice, plasma | intravenous, 0.15 mg/kg, with: budesonide 0.2 mg/kg | – | 267 nM
CC(C)[C@H]1NC(=O)C[C@H]2/C=C/CCSSC[C@@H](NC1=O)C(=O)N[C@H](Cc1cccc3ccccc13)C(=O)NCC(=O)O2 | – | nude mouse, blood | oral, 12 mg/kg | – | 0.825 ng/mL
CCCCCCCC(=O)OC[C@H](NC(=O)[C@H](CO)NC(=O)CN)C(=O)N[C@@H](Cc1ccccc1)C(=O)N[C@@H](CC(C)C)C(=O)N[C@@H](CO)C(=O)N1CCC[C@H]1C(=O)N[C@@H](CCC(=O)O)C(=O)N[C@@H](Cc1cnc[nH]1)C(=O)N[C@@H](CCC(N)=O)C(=O)N[C@@H](CCCNC(=N)N)C(=O)N[C@H](C(=O)N[C@@H](CCC(N)=O)C(=O)N[C@@H](CCC(N)=O)C(=O)N[C@@H](CCCNC(=N)N)C(=O)N[C@@H](CCCCN)C(=O)N[C@@H](CCC(=O)O)C(=O)N[C@@H](CO)C(=O)N[C@@H](CCCCN)C(=O)N[C@@H](CCCCN)C(=O)N1CCC[C@H]1C(=O)N1CCC[C@H]1C(=O)N[C@@H](C)C(=O)N[C@@H](CCCCN)C(=O)N[C@@H](CC(C)C)C(=O)N[C@@H](CCC(N)=O)C(=O)N1CCC[C@H]1C(=O)N[C@@H](CCCNC(=N)N)C(=O)O)C(C)C | two-site ELISA | human, plasma | intravenous infusion, 1 µg/kg/h, 65 min infusion | – | 3.9 ± 3.5 ng/mL

For quick reference, copied from above:
Structure (SMILES) | test | test system | setting | how to read | Cmax
COc1ccc(F)cc1S(=O)(=O)Nc1cnc2c(c1)C(=O)NCCO2 | – | male C57BL/6 mouse, plasma | oral, 3 mg/kg, single dose | – | 590 ng/mL
